Assay results of several laboratories.
Parts stem from different laboratories: compare values within a part only. ± marks the error that the study gave.
Sequence of UniProt P34913 (whole entry, looked up): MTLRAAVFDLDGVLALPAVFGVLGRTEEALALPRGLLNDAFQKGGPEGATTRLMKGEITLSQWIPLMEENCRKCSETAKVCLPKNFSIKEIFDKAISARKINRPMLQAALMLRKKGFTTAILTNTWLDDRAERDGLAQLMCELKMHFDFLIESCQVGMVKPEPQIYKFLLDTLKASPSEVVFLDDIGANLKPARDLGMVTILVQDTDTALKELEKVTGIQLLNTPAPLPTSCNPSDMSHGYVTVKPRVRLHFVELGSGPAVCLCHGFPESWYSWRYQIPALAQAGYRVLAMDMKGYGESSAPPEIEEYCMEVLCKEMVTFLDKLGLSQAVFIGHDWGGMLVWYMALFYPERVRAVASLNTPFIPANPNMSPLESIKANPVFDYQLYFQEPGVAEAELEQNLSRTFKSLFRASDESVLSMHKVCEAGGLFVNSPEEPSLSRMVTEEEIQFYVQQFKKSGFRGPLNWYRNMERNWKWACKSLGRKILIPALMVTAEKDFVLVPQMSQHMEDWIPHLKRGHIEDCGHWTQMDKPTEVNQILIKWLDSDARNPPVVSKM
Sequence of UniProt P21675 (whole entry, unmodified, looked up): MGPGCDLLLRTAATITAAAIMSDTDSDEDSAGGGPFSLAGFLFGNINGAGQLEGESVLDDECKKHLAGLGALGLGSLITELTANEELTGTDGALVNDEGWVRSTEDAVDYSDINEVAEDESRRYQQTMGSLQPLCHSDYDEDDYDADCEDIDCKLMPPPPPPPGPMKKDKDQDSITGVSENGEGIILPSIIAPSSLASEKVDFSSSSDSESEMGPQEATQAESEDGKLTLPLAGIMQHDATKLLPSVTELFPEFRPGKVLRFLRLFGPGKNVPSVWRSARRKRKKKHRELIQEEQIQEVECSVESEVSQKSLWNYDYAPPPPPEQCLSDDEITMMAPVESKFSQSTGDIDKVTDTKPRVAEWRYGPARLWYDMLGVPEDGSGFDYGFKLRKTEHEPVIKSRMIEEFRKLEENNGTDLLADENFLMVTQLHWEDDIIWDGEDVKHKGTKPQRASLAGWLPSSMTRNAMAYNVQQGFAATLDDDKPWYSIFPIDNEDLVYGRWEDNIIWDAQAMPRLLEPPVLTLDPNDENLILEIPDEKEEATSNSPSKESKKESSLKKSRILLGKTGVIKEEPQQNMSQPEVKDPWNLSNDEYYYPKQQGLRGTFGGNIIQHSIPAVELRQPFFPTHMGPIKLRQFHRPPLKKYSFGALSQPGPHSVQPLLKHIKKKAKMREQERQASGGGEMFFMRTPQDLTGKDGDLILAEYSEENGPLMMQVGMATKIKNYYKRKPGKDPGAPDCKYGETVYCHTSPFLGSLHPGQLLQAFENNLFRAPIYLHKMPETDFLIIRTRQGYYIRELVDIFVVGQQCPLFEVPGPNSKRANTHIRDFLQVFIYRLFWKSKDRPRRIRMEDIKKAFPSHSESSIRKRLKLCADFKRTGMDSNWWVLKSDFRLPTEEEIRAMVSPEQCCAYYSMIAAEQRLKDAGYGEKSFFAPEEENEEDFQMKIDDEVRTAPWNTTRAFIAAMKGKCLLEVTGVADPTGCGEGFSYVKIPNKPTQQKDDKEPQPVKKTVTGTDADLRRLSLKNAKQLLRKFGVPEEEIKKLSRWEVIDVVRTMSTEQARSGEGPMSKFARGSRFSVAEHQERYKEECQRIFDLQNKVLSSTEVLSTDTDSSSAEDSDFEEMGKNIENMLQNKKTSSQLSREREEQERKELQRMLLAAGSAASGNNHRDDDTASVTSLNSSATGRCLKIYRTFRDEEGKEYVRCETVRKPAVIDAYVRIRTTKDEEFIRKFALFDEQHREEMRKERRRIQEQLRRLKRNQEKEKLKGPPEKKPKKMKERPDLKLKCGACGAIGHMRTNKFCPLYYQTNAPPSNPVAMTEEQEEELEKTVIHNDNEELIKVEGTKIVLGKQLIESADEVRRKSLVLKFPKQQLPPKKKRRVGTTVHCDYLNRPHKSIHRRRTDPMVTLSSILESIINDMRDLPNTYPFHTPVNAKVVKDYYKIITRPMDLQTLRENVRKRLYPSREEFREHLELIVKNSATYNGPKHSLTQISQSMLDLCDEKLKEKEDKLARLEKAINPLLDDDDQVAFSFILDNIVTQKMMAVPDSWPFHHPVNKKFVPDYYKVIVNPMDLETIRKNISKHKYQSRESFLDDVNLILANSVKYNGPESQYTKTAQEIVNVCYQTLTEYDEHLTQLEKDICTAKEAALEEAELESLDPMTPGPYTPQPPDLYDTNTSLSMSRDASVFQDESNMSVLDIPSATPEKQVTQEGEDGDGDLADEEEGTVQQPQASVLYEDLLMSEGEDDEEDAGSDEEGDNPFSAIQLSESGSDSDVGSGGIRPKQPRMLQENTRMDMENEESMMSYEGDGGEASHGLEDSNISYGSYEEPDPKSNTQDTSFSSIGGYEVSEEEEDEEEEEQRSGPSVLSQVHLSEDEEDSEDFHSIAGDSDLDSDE

Study 1
SMILES: Cc1cc(OCc2nnc(SC3CCCC3)n2-c2cccnc2)ccc1-c1ccc(S(C)(=O)=O)cc1
It gave 5.55 µM for CC50 (HCC 2998).
MCF7 — CC50: > 100 µM.
RPMI-8226 — CC50: > 100 µM.

Other studies, line by line
The IC50 of O=C(Nc1ccc(C(F)(F)F)cc1)NC1CCN(c2c(NS(=O)(=O)Cc3ccccc3)c(=O)c2=O)CC1 is reported as 0.0029 ± 0.0005 µM (EPHX2 (Homo sapiens, UniProt P34913)).
CC[C@@H]1C(=O)N(C)c2cnc(Nc3ccc(C(=O)NC4CCN(C)CC4)cc3OC)nc2N1C1CCCC1 gave a ΔTm of 0.79 ± 0.07 °C (Transcription initiation factor TFIID subunit 1, bromodomain 2 (TAF1, Homo sapiens, UniProt P21675); thermal stabilisation, thermal shift; 10 µM).
N#Cc1ccc(-c2csc(CNC(=O)C34CC(CN(C(=O)COCCF)C3)C4)n2)cc1 gave a half-life of 3.6 h (Sprague Dawley rats male, plasma; oral, 3 mg/kg).
